Measurements pooled from the literature.
Every numbered part comes from another study and shows a few of its results, in no order. Substitutions count along the parent as printed.

Series 1
Target: CCND1, cyclin fold, Cln2 fusion (human)
Technique: yeast growth competition, sequencing
Sample: yeast
Setting: weak parent motif
Reference: not given
Reading: higher = stronger binding
Starting sequence: GMNC docking peptide (human); KNAKRNLSSEFAN; partner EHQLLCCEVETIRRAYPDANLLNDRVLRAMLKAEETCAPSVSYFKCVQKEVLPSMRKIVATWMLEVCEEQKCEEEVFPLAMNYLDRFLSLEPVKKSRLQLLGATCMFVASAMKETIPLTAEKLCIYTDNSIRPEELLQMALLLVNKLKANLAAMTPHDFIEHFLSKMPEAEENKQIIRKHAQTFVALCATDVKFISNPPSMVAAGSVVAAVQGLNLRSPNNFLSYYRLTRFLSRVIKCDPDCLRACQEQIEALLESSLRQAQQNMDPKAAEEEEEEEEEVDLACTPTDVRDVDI
Variant | normalised enrichment score
F11A | -0.0209
A3E | -0.0172
S8Q | 0.893
F11S | 0.182
S8P | 0.0788
L7P | 0.182
A3G | 0.345
L7H | 0.0162
N2S | 0.943
R5P | -0.176
R5M | 0.329
L7M | -0.000143
S8D | 0.697
E10F | 0.243
A12K | 0.342
N2H | 0.432
S8Y | 0.386
N2A | 0.291
A3M | 0.223
S8T | 0.271
E10H | -0.0634
S9C | 0.403
N6D | 0.547
N2E | 0.638
A3H | 0.743

Series 2
Target: ABI1, truncated, D143A, DHFR fusion (Arabidopsis thaliana)
Technique: DHFR PCA, deep sequencing
Sample: yeast
Setting: methotrexate growth selection, single substitutions
With: (+)-ABA 2500 µM
Reference: wild-type fitted maximum
Reading: higher = stronger binding
Starting sequence: PYL1, truncated, DHFR fusion (Arabidopsis thaliana); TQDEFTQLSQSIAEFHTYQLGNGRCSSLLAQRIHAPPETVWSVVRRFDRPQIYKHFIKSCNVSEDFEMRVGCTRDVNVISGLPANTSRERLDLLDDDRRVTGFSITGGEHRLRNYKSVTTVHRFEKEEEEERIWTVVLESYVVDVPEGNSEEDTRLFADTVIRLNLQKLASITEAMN
Variant | relative binding score
Q51A | 91.2%
K54M | -6.32%
A13W | 88.4%
L82P | 90.1%
V142D | 87.3%
P36G | 95.6%
D3S | 92.2%
R74W | 11.1%
E14I | 85.4%
S150V | 89.7%
L112T | 51.7%
S42M | 104%
E152D | 99.6%
H34R | 88.3%
P146E | 65.8%
T39Q | 96.9%

Series 3
Target: Sal-like protein 4, full length isoform A (SALL4, Homo sapiens, UniProt Q9UJQ4, residues 1-1053)
Sequence of UniProt Q9UJQ4 (whole entry, looked up): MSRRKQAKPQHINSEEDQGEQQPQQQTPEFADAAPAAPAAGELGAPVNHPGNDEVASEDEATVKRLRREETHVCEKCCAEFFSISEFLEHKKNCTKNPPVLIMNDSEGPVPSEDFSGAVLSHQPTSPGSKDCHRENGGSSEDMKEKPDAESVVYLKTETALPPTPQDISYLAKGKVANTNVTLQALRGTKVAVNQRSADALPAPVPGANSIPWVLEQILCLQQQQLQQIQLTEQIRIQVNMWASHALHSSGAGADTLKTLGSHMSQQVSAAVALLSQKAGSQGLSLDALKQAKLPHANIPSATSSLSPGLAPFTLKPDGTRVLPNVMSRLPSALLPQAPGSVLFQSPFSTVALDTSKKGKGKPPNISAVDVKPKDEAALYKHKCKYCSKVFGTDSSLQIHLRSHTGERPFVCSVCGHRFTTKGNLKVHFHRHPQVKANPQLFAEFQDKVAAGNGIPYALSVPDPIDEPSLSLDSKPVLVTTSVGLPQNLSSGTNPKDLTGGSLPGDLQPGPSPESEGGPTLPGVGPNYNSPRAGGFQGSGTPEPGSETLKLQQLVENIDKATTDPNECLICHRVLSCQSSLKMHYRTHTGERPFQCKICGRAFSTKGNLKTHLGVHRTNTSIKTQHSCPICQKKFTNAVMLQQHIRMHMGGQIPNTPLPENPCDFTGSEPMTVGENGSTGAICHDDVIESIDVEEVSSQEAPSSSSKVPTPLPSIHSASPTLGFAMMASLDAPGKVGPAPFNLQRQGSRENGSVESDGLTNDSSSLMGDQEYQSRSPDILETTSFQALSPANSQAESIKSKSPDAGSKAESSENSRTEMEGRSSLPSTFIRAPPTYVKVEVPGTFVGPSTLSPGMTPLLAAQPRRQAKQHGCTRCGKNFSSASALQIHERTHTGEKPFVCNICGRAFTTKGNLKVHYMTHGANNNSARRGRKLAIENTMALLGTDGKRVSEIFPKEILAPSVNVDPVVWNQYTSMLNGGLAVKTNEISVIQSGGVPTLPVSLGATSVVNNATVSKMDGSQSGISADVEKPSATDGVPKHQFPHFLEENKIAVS
Technique: universal PBM
Molecule type: double-stranded DNA, one strand shown
Sample: in vitro
Tested at: 600 nM
Setting: 8-mer, flanks averaged, mean of replicates
Reading: higher = stronger binding
Strand | E-score
AAGGGGTG | -0.163
AGTTTAAT | 0.25
GAGACTGC | -0.267
GGCCCAAC | -0.239
AATAGGTC | 0.165
AGTTGGCC | -0.264
ATGTATTG | 0.245
AACAATAC | 0.212
AAGAGCTC | -0.324
AATCATTA | 0.326
ATGTAGGG | 0.0692
AAAAGGCA | 0.085
GAACGTAA | 0.0375
ATGTCCCA | -0.138
CCGCGTAA | -0.111
TTGCACAA | 0.163

Series 4
Target: Fragile X messenger ribonucleoprotein 1, C-terminal low-complexity region (Fmr1, Mus musculus, UniProt P35922)
Technique: RNA Bind-n-Seq
Molecule type: RNA
Sample: in vitro
Tested at: 200 nM
Setting: whole 134-nt RNA, ends assumed
With: 150 mM KCl
Reference: input library
Reading: higher = stronger binding
Strand | log2 enrichment
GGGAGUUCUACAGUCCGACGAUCACCAUGCAGGUGGGCAUCUUUGGGAAGUGGGGCAAGGGGGGGAUAGGGAGGGGGGUAAAACUUUGGGAACAGGUGGUCCCAGGUCGUUUCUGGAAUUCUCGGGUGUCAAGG | 0.585
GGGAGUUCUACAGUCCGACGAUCUAACUUUAGAGGAGGAUCUGAUGGAUAUGGCAGUGGACGUGGAUUUGGGGAUGGCUAUAAUGGGUAUGGAGGAGAACCUGGAGGUGGCAAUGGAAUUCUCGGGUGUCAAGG | 0.251
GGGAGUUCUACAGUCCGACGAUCUGUGAACUUGUAUGUGAAGAAUCUGGACGACUCCAUUGAUGACGACAAACUGAGGAAAGAGUUCUCUCCCUAUGGAGUAAUUACCAGUGCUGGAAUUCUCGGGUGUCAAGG | -0.00519
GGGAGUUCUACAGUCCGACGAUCGUCCUGUGCUACACAUCGUAUGUACCGAAUCAAACCCCCAAACCCAAACCCCCCCAAAAAAGUAUUAUGUUACGCCGUUCGGAUCUGCACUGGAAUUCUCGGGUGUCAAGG | -0.525
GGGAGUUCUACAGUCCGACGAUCAAGUCCUGUGCUACACAUCGUAUGUACCGAAUCGGUUUUGGGUUUUGGGUUUUGGGAAAGUAUUAUGUUACGCCGUUCGGAUCUGCACUUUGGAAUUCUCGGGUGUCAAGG | -0.324
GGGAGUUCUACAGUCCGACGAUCAGUCCUGUGCUACACAUCGUAUGUACCGAAUCGGGCCCCCGGGCCCCCGGGCCCCCGGAAAGUAUUAUGUUACGCCGUUCGGAUCUGCACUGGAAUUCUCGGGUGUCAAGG | -0.858
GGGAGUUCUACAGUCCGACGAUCGCAGGAAGUACAAACAAAUGGAAAUGCUUCGGAUAGUGGCAGGGGUGGGGGUUGCUAAGGAAAGGGUGGGAUGGGAGUGGGUAAAGAGUUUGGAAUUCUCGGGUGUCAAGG | 0.246
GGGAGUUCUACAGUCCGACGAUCUGGCCCUGGUGGCAUGCGGGGAGGAAGAGGUGGCCUCAUGGAUCGUGGUGGUCCCGGUGGAAUCUUCAGAGGUGGCCGUGGUGGAGACAGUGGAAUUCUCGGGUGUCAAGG | -0.1
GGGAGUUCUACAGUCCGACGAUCCCUCAAGUCCUGUGCUACACAUCGUAUGUACCGAAUCGGUUGGGGUUGGUUGGAAAGUAUUAUGUUACGCCGUUCGGAUCUGCACUUCCAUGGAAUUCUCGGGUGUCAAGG | 0.0678
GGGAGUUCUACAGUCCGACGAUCCUCAAGUCCUGUGCUACACAUCGUAUGUACCGAAUCGGGAAGGAAGGGGAAGGAAAGUAUUAUGUUACGCCGUUCGGAUCUGCACUUCCAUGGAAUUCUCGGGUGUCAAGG | -0.0273
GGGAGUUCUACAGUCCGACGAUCUUAGAAGAACCCGAAGAACCUAAAGUGCUAACACCAGAAGAACAAUUAGCAGAUAAACUGCGGCUAAAGAAAUUACAGGAAGAGUCAGACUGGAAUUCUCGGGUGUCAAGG | 0.176
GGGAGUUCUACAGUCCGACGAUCUUUCUUCUGCUGCUGCUAGUCAUGAGAUCAAGGUGGGUCUGAGAAUGGCCAUUCAGAGGCCCUGGAUAGUAACCAGGUAAUGGAUGACACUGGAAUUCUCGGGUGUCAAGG | -0.661
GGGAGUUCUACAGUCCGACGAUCAAGUCCUGUGCUACACAUCGUAUGUACCGAAUCGGGGUUUUGGUUUUGGGGUUUUGGAAAGUAUUAUGUUACGCCGUUCGGAUCUGCACUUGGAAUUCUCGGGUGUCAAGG | -0.305
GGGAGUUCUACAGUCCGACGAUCCUCAAGUCCUGUGCUACACAUCGUAUGUACCGAAUCGGUGGAAAGGAAAAAGGAAAGUAUUAUGUUACGCCGUUCGGAUCUGCACUUCCAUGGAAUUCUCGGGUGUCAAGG | -0.216

Series 5
Target: Histone acetyltransferase KAT6A, winged helix 2, GST fusion (KAT6A, Homo sapiens, UniProt Q92794, residues 85-181)
Technique: protein binding microarray
Molecule type: double-stranded DNA, one strand shown
Sample: in vitro
Tested at: not given
Setting: 8-mer, flanks averaged, mean of 2 arrays, mostly near background
Reference: not given
Reading: higher = stronger binding
Construct (chain): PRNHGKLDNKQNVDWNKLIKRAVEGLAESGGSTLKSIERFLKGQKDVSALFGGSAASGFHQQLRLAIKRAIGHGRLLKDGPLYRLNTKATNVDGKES
Strand | E-score
GGAAAACA | 0.117
TAGTTTAA | 0.175
CCCATGGC | 0.0356
TACAGCAA | 0.12
CGCCATTA | 0.0472
TACTCGGA | 0.123
ACTAAAAG | 0.108
AACCGGAA | -0.125
CTAAAACA | -0.0864
ATACGGAT | -0.0765
ACGGGCAG | 0.069
ACAAGTAT | -0.202
AACATTCG | -0.109
AGGTGCAA | 0.0212
CCCGTCGA | 0.117
GGTCAGAA | 0.0306

Series 6
Target: Interferon regulatory factor 3, full length, phosphomimetic (IRF3, Homo sapiens, UniProt Q14653, residues 1-427, S386D/S396D/S398D/S402D/T404D/S405D)
Technique: protein-binding microarray
Molecule type: double-stranded DNA, one strand shown
Sample: in vitro
Tested at: 2540 nM top
Setting: 60-bp whole probe
With: salmon DNA 0.4 mg/ml
Reference: random background probes
Reading: higher = stronger binding
All sequences stand within: GCCTAGCAC … GTCTTGATTCGCTTGACGCTGCTG
Construct (chain): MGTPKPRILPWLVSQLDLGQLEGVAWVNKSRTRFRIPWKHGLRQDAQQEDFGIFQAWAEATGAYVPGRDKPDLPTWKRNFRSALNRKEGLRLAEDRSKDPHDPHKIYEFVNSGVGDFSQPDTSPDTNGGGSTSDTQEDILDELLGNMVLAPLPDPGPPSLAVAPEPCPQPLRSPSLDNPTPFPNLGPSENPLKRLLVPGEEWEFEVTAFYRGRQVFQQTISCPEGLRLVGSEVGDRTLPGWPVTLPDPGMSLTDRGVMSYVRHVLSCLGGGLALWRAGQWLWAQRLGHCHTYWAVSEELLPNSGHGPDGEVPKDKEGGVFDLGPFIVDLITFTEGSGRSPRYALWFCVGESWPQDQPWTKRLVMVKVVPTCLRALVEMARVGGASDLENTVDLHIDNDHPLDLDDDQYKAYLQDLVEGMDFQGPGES
Strand | fitted relative affinity
TTAGGACTGCGTATCGGTTAGTGCTAG | 0.839 z-score
TCATCCATGCTCTGTCGCACTGTGCTA | -0.0323 z-score
GACGGTTTCGACGTTCGGGACGTGCTA | 2.29 z-score
TTAGGACTGCTCCTGCTTTAGTGCTAG | -0.477 z-score
TTCGGTCTCGGTTTCGGTTAGTGCTAG | 5.72 z-score
GAGGAACTGGGGTTTCGAGACGTGCTA | -0.066 z-score
GACGGTATCCTACTGCTGTCGTGCTAG | 2.99 z-score
GTAGAACTGAGTTTCGATTAGTGCTAG | 2.65 z-score
GACGAACTGAGATTGGAGACGTGCTAG | -0.107 z-score
TAAAACATCATTTTTCCCTCGTGCTAG | 0.596 z-score
TCAGATTTCAGTCTCGATTAGTGCTAG | 2.7 z-score
TCAGGTATCGACACTGGGTTAGTGCTA | 0.459 z-score
TTAGGACTGGGGACTAGGTTAGTGCTA | -1 z-score
GACGAACTGAGACTGGAGTCGTGCTAG | -0.166 z-score
TTAGGACTGGGGACTGGGTTTGTGCTA | -1.13 z-score
TCAACTTTCTTTTTTTCACTGTGCTAG | 3.04 z-score
AGGAATTTCCCACTTTCAGTGTGCTAG | 2.53 z-score
TTTGGTCTCCTTTTCCTTTAGTGCTAG | 5.88 z-score
GACGGTATCGGTTTAGGGACGTGCTAG | 5.27 z-score
GACCGTATCGACTTTCGGGACGTGCTA | 2.19 z-score
TATCATTTAATTATATGGCTGTGCTAG | 1.09 z-score
TCATCTCTCTATTCAGAACTGTGCTAG | 1.46 z-score
GACAGACTGCTACTGCTGACGTGCTAG | -0.491 z-score
TCATTTTTCCTAATTGAACTGTGCTAG | 3.51 z-score
TCATGTGTCAGGTTTACTACTGTGCTA | 0.826 z-score

A few entries again (series 1):
Variant | normalised enrichment score
N2A | 0.291
A3M | 0.223
S8T | 0.271
E10H | -0.0634
S9C | 0.403
N6D | 0.547
N2E | 0.638
